{"data": "Assay results collected from several papers", "DRD3": "D(3) dopamine receptor (DRD3, Homo sapiens, UniProt P35462)", "Sterol carrier protein 2": "Sterol carrier protein 2 (Homo sapiens, UniProt P22307)", "note": "Lines come from different studies, so protocols differ. Values joined by “and” are separate records of one study, mostly repeats; a detail may differ. ± gives the spread as reported.", "sequence of UniProt P22307 (whole entry, looked up)": "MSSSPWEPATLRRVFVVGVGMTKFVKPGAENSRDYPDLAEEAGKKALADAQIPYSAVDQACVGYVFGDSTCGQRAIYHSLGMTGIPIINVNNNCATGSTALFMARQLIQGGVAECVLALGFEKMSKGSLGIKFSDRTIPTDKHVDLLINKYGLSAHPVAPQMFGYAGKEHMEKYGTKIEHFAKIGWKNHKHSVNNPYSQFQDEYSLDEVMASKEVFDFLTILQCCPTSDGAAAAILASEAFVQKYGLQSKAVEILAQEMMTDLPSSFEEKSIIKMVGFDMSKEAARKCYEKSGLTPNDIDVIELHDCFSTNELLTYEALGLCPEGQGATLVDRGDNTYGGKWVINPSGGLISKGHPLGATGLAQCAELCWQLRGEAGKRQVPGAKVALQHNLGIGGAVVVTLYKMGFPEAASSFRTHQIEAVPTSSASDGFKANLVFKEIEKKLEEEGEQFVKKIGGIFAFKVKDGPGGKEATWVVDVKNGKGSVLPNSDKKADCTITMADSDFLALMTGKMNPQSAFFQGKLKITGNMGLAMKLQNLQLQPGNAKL", "sequence of UniProt P35462 (whole entry, looked up)": "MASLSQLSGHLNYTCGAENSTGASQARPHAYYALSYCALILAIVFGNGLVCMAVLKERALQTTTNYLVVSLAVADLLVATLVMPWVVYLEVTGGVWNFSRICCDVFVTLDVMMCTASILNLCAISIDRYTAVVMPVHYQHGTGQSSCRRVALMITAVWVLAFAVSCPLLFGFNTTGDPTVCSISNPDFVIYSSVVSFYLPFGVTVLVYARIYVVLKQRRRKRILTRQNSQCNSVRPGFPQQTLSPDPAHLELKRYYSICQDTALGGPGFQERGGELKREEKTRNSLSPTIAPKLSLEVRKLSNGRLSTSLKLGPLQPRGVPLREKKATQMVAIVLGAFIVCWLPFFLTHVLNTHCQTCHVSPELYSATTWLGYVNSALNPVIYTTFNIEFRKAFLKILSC", "sequence of UniProt Q9H7Z7 (whole entry, looked up)": "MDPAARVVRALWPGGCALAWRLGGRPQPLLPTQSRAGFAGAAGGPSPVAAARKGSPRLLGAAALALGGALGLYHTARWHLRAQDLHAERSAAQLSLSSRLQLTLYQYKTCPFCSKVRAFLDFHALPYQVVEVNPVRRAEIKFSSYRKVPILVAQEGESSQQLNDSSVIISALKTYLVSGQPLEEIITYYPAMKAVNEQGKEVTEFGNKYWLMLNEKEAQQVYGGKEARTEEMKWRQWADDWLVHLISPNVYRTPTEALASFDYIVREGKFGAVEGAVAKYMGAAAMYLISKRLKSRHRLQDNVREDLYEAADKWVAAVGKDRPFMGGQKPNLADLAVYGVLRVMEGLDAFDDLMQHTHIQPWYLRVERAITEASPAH", "sequence of UniProt P42224 (whole entry, looked up)": "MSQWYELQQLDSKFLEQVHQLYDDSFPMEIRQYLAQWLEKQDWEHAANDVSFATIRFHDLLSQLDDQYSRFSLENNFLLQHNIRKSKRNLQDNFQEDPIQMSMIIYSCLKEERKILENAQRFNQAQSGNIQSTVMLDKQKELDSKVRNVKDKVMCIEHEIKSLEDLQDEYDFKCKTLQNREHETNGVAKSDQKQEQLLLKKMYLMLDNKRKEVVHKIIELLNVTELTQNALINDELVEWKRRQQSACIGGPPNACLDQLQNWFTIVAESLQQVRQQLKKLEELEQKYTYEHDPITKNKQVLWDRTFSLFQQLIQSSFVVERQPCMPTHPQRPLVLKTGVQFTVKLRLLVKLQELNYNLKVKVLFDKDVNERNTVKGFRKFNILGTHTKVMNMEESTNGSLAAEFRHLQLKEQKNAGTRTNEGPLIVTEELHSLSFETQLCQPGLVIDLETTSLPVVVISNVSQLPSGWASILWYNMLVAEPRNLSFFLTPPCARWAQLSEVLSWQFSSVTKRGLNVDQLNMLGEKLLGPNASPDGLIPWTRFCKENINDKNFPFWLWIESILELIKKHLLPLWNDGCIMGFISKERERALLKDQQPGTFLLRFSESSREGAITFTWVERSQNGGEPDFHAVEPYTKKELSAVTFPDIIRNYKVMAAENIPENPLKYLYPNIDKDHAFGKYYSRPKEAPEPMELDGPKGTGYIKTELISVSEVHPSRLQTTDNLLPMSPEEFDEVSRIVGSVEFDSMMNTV", "sequence of UniProt O35433 (whole entry, looked up)": "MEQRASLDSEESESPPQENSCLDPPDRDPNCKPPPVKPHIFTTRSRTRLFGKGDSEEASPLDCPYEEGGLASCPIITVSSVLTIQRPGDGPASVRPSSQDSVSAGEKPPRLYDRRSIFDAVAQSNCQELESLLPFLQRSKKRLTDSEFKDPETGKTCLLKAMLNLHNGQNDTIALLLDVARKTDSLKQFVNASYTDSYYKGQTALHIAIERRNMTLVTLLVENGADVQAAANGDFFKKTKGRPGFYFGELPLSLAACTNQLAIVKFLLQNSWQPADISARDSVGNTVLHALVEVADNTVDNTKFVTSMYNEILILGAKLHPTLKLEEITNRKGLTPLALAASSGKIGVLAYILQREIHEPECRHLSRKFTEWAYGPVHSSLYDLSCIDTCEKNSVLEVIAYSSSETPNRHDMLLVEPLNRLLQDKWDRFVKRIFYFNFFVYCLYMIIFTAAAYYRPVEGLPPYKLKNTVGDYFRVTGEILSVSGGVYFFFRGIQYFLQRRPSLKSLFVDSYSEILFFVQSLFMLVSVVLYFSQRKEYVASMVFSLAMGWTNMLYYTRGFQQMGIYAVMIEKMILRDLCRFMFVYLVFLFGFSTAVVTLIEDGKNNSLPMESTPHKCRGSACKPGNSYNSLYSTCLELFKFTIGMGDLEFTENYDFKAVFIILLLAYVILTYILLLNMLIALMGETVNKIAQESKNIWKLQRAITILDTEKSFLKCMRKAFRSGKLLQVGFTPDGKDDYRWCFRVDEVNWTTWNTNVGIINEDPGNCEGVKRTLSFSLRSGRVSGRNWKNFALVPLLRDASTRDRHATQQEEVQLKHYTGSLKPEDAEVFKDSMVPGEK", "sequence of UniProt P10587 (whole entry, looked up)": "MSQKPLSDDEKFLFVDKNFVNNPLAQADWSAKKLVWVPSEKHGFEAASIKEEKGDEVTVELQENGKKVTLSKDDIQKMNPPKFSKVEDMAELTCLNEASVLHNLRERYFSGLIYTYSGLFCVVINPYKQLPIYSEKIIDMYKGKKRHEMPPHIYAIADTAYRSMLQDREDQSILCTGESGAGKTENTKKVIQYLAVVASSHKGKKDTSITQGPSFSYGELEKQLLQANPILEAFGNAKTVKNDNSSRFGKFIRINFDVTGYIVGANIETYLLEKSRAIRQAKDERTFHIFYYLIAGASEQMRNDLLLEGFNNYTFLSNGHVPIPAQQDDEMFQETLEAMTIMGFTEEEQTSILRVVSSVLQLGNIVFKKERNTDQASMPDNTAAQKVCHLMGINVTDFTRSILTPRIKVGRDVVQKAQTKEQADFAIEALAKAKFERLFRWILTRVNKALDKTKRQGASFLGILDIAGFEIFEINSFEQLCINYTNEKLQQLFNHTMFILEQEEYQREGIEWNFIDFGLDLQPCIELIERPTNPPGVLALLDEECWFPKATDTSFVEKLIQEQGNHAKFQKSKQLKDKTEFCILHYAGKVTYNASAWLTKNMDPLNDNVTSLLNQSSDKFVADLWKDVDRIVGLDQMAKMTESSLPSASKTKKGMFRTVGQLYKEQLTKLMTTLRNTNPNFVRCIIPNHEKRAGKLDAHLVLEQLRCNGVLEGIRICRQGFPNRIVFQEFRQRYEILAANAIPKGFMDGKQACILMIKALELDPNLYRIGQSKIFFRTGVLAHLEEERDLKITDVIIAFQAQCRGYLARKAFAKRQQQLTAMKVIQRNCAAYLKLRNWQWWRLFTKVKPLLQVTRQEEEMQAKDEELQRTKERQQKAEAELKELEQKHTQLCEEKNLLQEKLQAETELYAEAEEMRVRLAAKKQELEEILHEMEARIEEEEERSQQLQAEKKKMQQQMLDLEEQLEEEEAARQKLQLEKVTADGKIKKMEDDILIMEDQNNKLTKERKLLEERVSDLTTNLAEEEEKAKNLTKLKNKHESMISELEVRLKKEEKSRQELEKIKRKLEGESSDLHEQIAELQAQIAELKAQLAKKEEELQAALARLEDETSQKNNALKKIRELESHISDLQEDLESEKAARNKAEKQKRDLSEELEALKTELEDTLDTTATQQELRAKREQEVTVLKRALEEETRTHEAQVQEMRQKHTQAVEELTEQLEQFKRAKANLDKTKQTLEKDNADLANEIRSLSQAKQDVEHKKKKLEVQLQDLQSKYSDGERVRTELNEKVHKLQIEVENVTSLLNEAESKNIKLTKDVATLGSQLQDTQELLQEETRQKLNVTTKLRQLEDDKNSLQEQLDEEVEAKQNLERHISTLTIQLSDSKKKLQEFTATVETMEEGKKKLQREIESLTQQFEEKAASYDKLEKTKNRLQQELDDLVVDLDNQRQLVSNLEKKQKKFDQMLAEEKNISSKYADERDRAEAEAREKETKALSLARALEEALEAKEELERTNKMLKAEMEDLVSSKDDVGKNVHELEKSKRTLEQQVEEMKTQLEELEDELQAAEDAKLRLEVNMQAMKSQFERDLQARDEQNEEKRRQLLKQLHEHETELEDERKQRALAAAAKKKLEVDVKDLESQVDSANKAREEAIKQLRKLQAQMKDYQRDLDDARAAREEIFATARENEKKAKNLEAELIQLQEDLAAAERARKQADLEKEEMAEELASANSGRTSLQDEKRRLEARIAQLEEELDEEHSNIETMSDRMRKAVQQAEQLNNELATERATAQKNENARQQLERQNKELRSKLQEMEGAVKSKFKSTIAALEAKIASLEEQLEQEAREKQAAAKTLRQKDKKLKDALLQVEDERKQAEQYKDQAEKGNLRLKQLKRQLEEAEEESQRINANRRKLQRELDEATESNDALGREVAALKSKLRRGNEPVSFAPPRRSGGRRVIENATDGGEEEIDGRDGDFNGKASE", "sequence of UniProt Q5BJF2 (whole entry, looked up)": "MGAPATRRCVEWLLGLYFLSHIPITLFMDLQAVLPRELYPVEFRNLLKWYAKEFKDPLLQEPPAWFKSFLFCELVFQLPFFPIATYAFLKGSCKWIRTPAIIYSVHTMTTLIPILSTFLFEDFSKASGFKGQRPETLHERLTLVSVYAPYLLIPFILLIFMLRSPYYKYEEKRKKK"}
{"Compound": "CC[C@H](C)[C@H](NC(=O)[C@H](Cc1ccccc1)NC(=O)[C@H](CCC(=O)O)NC(=O)[C@H](CCCNC(=N)N)NC(=O)[C@H](C)NC(=O)[C@H](C)NC(=O)[C@H](CCC(N)=O)NC(=O)[C@H](CCC(=O)O)NC(=O)[C@H](CCC(=O)O)NC(=O)[C@H](CC(C)C)NC(=O)[C@H](Cc1ccc(O)cc1)NC(=O)[C@H](CO)NC(=O)[C@H](CO)NC(=O)[C@@H](NC(=O)[C@H](CC(=O)O)NC(=O)[C@H](CO)NC(=O)[C@@H](NC(=O)[C@H](Cc1ccccc1)NC(=O)[C@@H](NC(=O)CNC(=O)[C@H](CCC(=O)O)NC(=O)[C@H](C)NC(=O)CCc1c[nH]cn1)[C@@H](C)O)[C@@H](C)O)C(C)C)C(=O)N[C@@H](C)C(=O)N[C@@H](Cc1c[nH]c2ccccc12)C(=O)N[C@@H](CC(C)C)C(=O)N[C@H](C(=O)N[C@@H](CCCNC(=N)N)C(=O)NCC(=O)N[C@@H](CCCNC(=N)N)C(=O)N[C@@H](CCCCNC(=O)COCCOCCNC(=O)COCCOCCNC(=O)CC[C@H](NC(=O)CCCCCCCCCCCCCCCCC(=O)O)C(=O)O)C(=O)NCC(=O)NCC(=O)N[C@@H](CO)C(=O)N[C@@H](CCCCNc1c(NCCCCCN(O)C(=O)CCC(=O)NCCCCCN(O)C(=O)CCC(=O)NCCCCCN(O)C(C)=O)c(=O)c1=O)C(=O)O)C(C)C [zirconium-89 labelled]", "assay": "ex vivo gamma counting", "system": "rat, brain", "conditions": "subcutaneous, 3 nmol/kg, 72 h, with: [89Zr]-labelled peptide", "measurement": "tissue uptake", "value": "0.01 %ID/g"}
{"Compound": "FCCCc1cncc(OC[C@@H]2C=CCN2)c1", "tested on": "Neuronal acetylcholine receptor; alpha4/beta2 (Rattus norvegicus, UniProt P09483+P12390)", "assay": "binding, radioligand displacement", "system": "rat brain homogenate", "conditions": "with: [3H]cytisine", "measurement": "Ki", "value": "0.00036 µM"}
{"Compound": "COc1cc(CC(=O)NCC(COC(=O)C(C)(C)C)Cc2ccc(C(C)(C)C)cc2)cc(Br)c1N (stereo not drawn)", "tested on": "Transient receptor potential cation channel subfamily V member 1 (Trpv1, Rattus norvegicus, UniProt O35433)", "conditions": "cell-based", "measurement": "Ki", "value": "0.00219 µM"}
{"Compound": "C[C@]12CC[C@H](O)C[C@H]1CC[C@@H]1[C@@H]2CC[C@]2(C)[C@@H](C3=CC(=O)OC3)CC[C@]12O", "tested on": "Oxysterol-binding protein 1 (OSBP, Homo sapiens, UniProt P22059)", "measurement": "Ki", "value": "> 100 µM"}
{"Compound": "COc1cc(Nc2ncc(F)c(Nc3ccc4c(n3)NC(=O)C(C)(C)O4)n2)cc(OC)c1OC", "tested on": "thyroid hormone receptor", "measurement": "IC50", "value": "> 10 µM"}
{"Compound": "O[C@H](CCCN1CCC(O)(c2ccc(Cl)cc2)CC1)c1ccc(F)cc1", "tested on": "DRD3", "measurement": "Ki", "value": "5.4 ± 0.353 µM"}
{"Compound": "COc1ccc(S(=O)(=O)N(CC(C)C)C[C@@H](O)[C@H](Cc2ccccc2)NC(=O)O[C@H]2C[C@@H]3C[C@H]4[C@H](OC[C@H]42)O3)cc1", "tested on": "Gag-Pol polyprotein, protease (gag-pol, Human immunodeficiency virus type 1 group M subtype B, UniProt P04585)", "assay": "enzyme activity, inhibitor", "measurement": "Ki", "value": "2e-06 µM"}
{"Compound": "O=P(O)(O)Oc1ccccc1OP(=O)(O)O", "tested on": "Signal transducer and activator of transcription 1-alpha/beta (STAT1, Homo sapiens, UniProt P42224)", "assay": "inhibitor", "measurement": "Ki", "value": "44 ± 1 µM"}
{"Compound": "CN(C)C(=N)N=C(N)N", "tested on": "speB (Escherichia coli, UniProt P60651)", "assay": "competitive inhibitor", "conditions": "pH 7.5, with: agmatine", "measurement": "Ki", "value": "1140 ± 120 µM"}
{"Compound": "CC(=O)P(=O)(O)OCCc1cn([C@H](Cc2ccccc2)C(=O)O)nn1", "tested on": "dxs (Pseudomonas aeruginosa, UniProt Q9KGU7, R106A)", "assay": "inhibitor", "measurement": "Ki", "value": "43 ± 9 µM"}
{"Compound": "C[C@@H](O)[C@@H](CO)NC(=O)[C@@H](CCCNC(=N)N)NC(=O)[C@@H]1CCCN1C(=O)[C@@H]1CSSC[C@H](NC(=O)[C@H](Cc2ccccc2)NC(=O)CN2CCN(CC(=O)O)CCN(CC(=O)O)CCN(CC(=O)O)CC2)C(=O)N[C@@H](Cc2ccc(O)cc2)C(=O)N[C@@H](Cc2ccccc2)C(=O)N[C@@H](CCC(N)=O)C(=O)N[C@@H](CC(N)=O)C(=O)N1 [gallium-68 labelled]", "system": "healthy Wistar rat, large intestine", "conditions": "intravenous, 8 MBq, 30 min", "measurement": "tissue uptake", "value": "0.23 %ID/g"}
{"Compound": "C[C@H]1CN(c2n[nH]c3nc(N[C@H]4CC[C@H](NS(=O)(=O)CCC(F)(F)F)CC4)ncc23)CCO1", "tested on": "Prostaglandin E synthase 2 (Homo sapiens, UniProt Q9H7Z7)", "assay": "Kinobeads competition, measured: PTGES2", "conditions": "0.032 µM, unit not given", "how to read": "baseline: vehicle", "measurement": "remaining binding", "value": 1.1}
{"Compound": "COc1cc2c(Oc3ccc4[nH]c(C)cc4c3F)ccnc2cc1OCC1(N)CC1", "system": "paediatric recurrent refractory sarcoma", "conditions": "8 mg", "measurement": "grade 3 weight loss", "value": "0%"}
{"Compound": "O=C(O)C(F)(F)C(F)(F)C(F)(F)C(F)(F)C(F)(F)C(F)(F)C(F)(F)C(F)(F)C(F)(F)C(F)(F)C(F)(F)F", "tested on": "Sterol carrier protein 2", "measurement": "Ki", "value": "1.04 ± 0.04 µM"}
{"Compound": "O=C[C@H](O)COP(=O)(O)O", "tested on": "dxs (Pseudomonas aeruginosa, UniProt Q9KGU7, R482A)", "measurement": "Ki", "value": "3200 µM and ~3200 µM"}
{"Compound": "O=C(O)CCC(=O)C(=O)O", "tested on": "Hypoxia-inducible factor 1-alpha inhibitor (HIF1AN, Homo sapiens, UniProt Q9NWT6)", "assay": "substrate", "conditions": "pH 7.00, 37.0 °C, with: CTAD 100 µM", "measurement": "Ki", "value": "> 1300 µM"}
{"Compound": "O=C(NCCCCN1CCN(c2cccc(Cl)c2Cl)CC1)c1cc2ccccc2s1", "tested on": "Cholinesterase (BCHE, Homo sapiens, UniProt P06276)", "assay": "inhibitor, fluorometric", "measurement": "IC50", "value": "16.9 ± 4.22 µM"}
{"Compound": "CC[C@H](C)[C@@H]1NC(=O)[C@@H]2CCCN2C(=O)[C@H](CC(C)C)NC(=O)[C@H](CC(C)C)NC(=O)CNC(=O)[C@@H](NC(=O)[C@@H](NC(=O)[C@H](CC(=O)O)NC(=O)CNC(=O)[C@@H](NC(=O)[C@H](C)NC(=O)CNC(=O)[C@H](CCCCN)NC(=O)[C@H](CC(C)C)NC(=O)[C@H](CC(C)C)NC(=O)[C@H](CCCCN)NC(=O)CNC(=O)[C@@H](NC(=O)[C@@H](N)CC(C)C)C(C)C)C(C)C)C(C)C)CSSC[C@@H](C(=O)O)NC1=O", "assay": "RNA-seq, measured: Pim1", "system": "mouse, traumatic brain injury model, frontal cortex and hippocampus", "conditions": "dose not given", "how to read": "baseline: TBI alone", "measurement": "log2 fold change", "value": -3.22}
{"Compound": "O=C(O)C(F)(F)C(F)(F)C(F)(F)C(F)(F)C(F)(F)C(F)(F)C(F)(F)C(F)(F)F", "tested on": "Sterol carrier protein 2", "assay": "binder, NBD-stearic acid displacement fluorescence", "conditions": "recombinant protein", "measurement": "Ki", "value": "> 64 µM"}
{"Compound": "COc1cc(N2CC[C@@]3(O)C(=O)c4cc(C)c(C)cc4N=C23)ccn1", "tested on": "MYH11, S1 fragment (Gallus gallus, UniProt P10587)", "assay": "ATPase activity, inhibitor", "measurement": "Ki", "value": "4 µM"}
{"Compound": "OC(c1ccc(F)cc1)C(F)(F)CCN1CCC(O)(c2ccc(Cl)cc2)CC1 (racemic)", "tested on": "DRD3", "measurement": "Ki", "value": "3.82 ± 0.399 µM"}
{"Compound": "CO[C@H]1C[C@@H]2CC[C@@H](C)[C@@](O)(O2)C(=O)C(=O)N2CCCC[C@H]2C(=O)O[C@H]([C@H](C)C[C@@H]2CC[C@@H](OC(=O)NCCOCCOCCOCCOCCOCCOCCOCCOCCC(=O)N3CCc4cc(Cn5nc(-c6ccc7oc(N)nc7c6)c6c(N)ncnc65)ccc4C3)[C@H](OC)C2)C[C@@H](O)[C@H](C)/C=C(\\C)[C@@H](O)[C@@H](OC)C(=O)[C@H](C)C[C@H](C)/C=C/C=C/C=C/1C", "system": "patients with advanced solid tumours", "conditions": "intravenous, 12 mg weekly, grade 3 or higher", "measurement": "mucositis incidence", "value": "25%"}
{"Compound": "C=CCSCC(=O)O", "tested on": "putA (Sinorhizobium meliloti, UniProt F7X6I3)", "measurement": "Ki", "value": "8000 ± 1000 µM"}
{"Compound": "CCCCC1CNC2CCc3ccc(OC)cc3C12 (racemic)", "tested on": "Sigma intracellular receptor 2 (TMEM97, Homo sapiens, UniProt Q5BJF2)", "assay": "binding, PDSP radioligand binding", "measurement": "Ki", "value": "0.0025 µM"}
{"note": "Repeated from above:"}
{"Compound": "C[C@@H](O)[C@@H](CO)NC(=O)[C@@H](CCCNC(=N)N)NC(=O)[C@@H]1CCCN1C(=O)[C@@H]1CSSC[C@H](NC(=O)[C@H](Cc2ccccc2)NC(=O)CN2CCN(CC(=O)O)CCN(CC(=O)O)CCN(CC(=O)O)CC2)C(=O)N[C@@H](Cc2ccc(O)cc2)C(=O)N[C@@H](Cc2ccccc2)C(=O)N[C@@H](CCC(N)=O)C(=O)N[C@@H](CC(N)=O)C(=O)N1 [gallium-68 labelled]", "system": "healthy Wistar rat, large intestine", "conditions": "intravenous, 8 MBq, 30 min", "measurement": "tissue uptake", "value": "0.23 %ID/g"}
{"Compound": "C[C@H]1CN(c2n[nH]c3nc(N[C@H]4CC[C@H](NS(=O)(=O)CCC(F)(F)F)CC4)ncc23)CCO1", "tested on": "Prostaglandin E synthase 2 (Homo sapiens, UniProt Q9H7Z7)", "assay": "Kinobeads competition, measured: PTGES2", "conditions": "0.032 µM, unit not given", "how to read": "baseline: vehicle", "measurement": "remaining binding", "value": 1.1}
{"Compound": "COc1cc2c(Oc3ccc4[nH]c(C)cc4c3F)ccnc2cc1OCC1(N)CC1", "system": "paediatric recurrent refractory sarcoma", "conditions": "8 mg", "measurement": "grade 3 weight loss", "value": "0%"}
{"Compound": "O=C(O)C(F)(F)C(F)(F)C(F)(F)C(F)(F)C(F)(F)C(F)(F)C(F)(F)C(F)(F)C(F)(F)C(F)(F)C(F)(F)F", "tested on": "Sterol carrier protein 2", "measurement": "Ki", "value": "1.04 ± 0.04 µM"}
